Measurements from different studies.
Lines come from different studies, so protocols differ. ± gives the spread as reported.
CDC48A: CDC48A 1-463 (Arabidopsis thaliana, UniProt P54609)
Chain of UniProt P54609 (whole entry, looked up): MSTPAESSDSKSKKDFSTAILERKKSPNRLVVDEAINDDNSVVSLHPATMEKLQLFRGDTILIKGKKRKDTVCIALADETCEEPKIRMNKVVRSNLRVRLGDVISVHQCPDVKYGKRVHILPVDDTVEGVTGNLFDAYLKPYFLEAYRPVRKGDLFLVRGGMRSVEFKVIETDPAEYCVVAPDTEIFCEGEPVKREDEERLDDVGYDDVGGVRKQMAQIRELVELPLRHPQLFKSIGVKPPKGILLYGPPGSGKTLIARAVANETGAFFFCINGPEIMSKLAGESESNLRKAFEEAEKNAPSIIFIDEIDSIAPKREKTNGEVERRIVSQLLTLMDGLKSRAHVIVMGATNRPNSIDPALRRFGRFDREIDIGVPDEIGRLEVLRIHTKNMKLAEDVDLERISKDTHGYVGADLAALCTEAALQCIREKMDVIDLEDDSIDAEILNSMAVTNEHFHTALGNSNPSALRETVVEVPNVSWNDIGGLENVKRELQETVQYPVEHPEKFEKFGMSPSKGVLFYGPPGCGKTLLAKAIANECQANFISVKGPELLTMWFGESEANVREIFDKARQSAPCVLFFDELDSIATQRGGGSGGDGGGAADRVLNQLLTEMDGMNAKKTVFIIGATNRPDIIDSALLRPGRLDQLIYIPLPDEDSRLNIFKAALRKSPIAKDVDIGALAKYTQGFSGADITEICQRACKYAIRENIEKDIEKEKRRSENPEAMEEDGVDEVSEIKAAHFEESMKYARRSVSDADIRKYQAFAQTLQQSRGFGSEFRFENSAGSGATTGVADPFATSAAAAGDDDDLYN
EIF4E2: EIF4E2 52-234 (Homo sapiens, UniProt O60573-1)
T1: ATRX ADD domain 167-289 K251R/F284Y (Homo sapiens); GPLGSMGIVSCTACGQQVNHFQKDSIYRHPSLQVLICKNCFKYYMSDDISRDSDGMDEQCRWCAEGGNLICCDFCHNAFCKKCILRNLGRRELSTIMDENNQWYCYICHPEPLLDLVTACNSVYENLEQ
B1: priC (Escherichia coli, UniProt P23862); sequence looked up; chain MKTALLLEKLEGQLATLRQRCAPVSQFATLSARFDRHLFQTRATTLQACLDEAGDNLAALRHAVEQQQLPQVAWLAEHLAAQLEAIAREASAWSLREWDSAPPKIARWQRKRIQHQDFERRLREMVAERRARLARVTDLVEQQTLHREVEAYEARLARCRHALEKIENRLARLTR
B2: PUX5 301-421 F395A (Arabidopsis thaliana, UniProt Q7Y175); chain KNPFQGVGRTLGASGSGSSSAPQASSAPMNVAPAPSRGLVVDPAAPTTSIQLRLADGTRLVSRFNNHHTVRDVRGFIDASRPGGSKEYQLLTMGAPPKQLTELDQTIEQAGIANAVVIQKF
B3: PUX5 301-421 R353A (Arabidopsis thaliana, UniProt Q7Y175); chain KNPFQGVGRTLGASGSGSSSAPQASSAPMNVAPAPSRGLVVDPAAPTTSIQLALADGTRLVSRFNNHHTVRDVRGFIDASRPGGSKEYQLLTMGFPPKQLTELDQTIEQAGIANAVVIQKF
B4: GIGYF1 33-103 (Homo sapiens, UniProt O75420); chain KYKLADYRYGREEMLALYVKENKVPEELQDKEFAAVLQDEPLQPLALEPLTEEEQRNFSLSVNSVAVLRLM
B5: ATG23 full-length, dimer (Saccharomyces cerevisiae, UniProt Q06671); sequence looked up; chain MELNQVLEKKEQILQYLGTLVGLHEKALSDVNSASQVTSIRKDITICLNDLCRINDLLVSHDGLLKREIGSLLRDKQELLELNEREQLLWKERKSWHIKQETDAAPADYVIDKDAIITISSHHRTSLNKYIESVGAENTILSNTDDSDAMIEEVQNAESSADQMIRNYKLLQLSHKQAKSEIIRLETLLRDFKKDNKFIEEELKRQSGRIRSEMGNIDFHLSKIEESKHQLMKRIGFESPLTQEKSLSEKIFNLRLSSADEDYNERQTINMKNFVHMKDLIELKIEDLQEQLMRNKNESSTVLTQRELWLDCQKKVGDLESKLITKLRSSSNSKIPPNEMSEMINSTIQYLNNLLDSSDEKLTTTLISNERDVLSKACEELHSESTTAQDGSSALPSKPIDIHKSHKGSNASSNLKQPSTPSFLVASKSPPKIGISESVVNANKNDAISKKVE
B6: mxt 577-640 (Drosophila melanogaster, UniProt Q9VR35); sequence looked up; chain SRVSYDIEHLLYYSMSPHSWTLPTDWQKMQETAPSILRNKDLQDESQRFDGDKYLASIKTAAKR
B7: SPP1 161-353 (Saccharomyces cerevisiae, UniProt Q03012); chain DNNIVVKTDDEKEIFDQIVVRDMTLKTLEDDLQEVQEISLPLFKKKLELLEVYLGWLDNVYTEMRKLDDDAASHVECGKEDSKGTKRKKKKNSSRSRARKNICGYCSTYERIPCSVEEFVRDFGSNEEATKIHEVCTKWKCNRHLDWVSTNQEQYLQQIDSLESMQERLQHLIQARKKQLNIQYYEEILRRGL
B8: HCK 78-138 (Homo sapiens, UniProt P08631); chain SEDIIVVALYDYEAIHHEDLSFQKGDQMVVLEESGEWWKARSLATRKEGYIPSNYVARVDS
B9: PUX9 (Arabidopsis thaliana, UniProt Q4V3D3); chain MVSPTRDAIQSYMSITGASESLAIQRLEEHGNNLPEAINAHFRDVERSIYDDSSLDTRSDYNVVEDNNHVRGSETRPVNESRPVPGALPSILSAARAFRPSLLLDPNYRRNILRQLSGSALSGSPSPSSHTGEVTGFPAHSTWGNDHTRPPGLGAVGDGYARHSPSYGSQVHGGTHRDADSPVHSNDAEEEMIRAAIEASKKDFQEGRLNTRYSLDNNPSSVLSPREVINREDEDIARAISMSLEMEEHESVLRDQLAEFMPQSVEHHDPCQSNTNESTRYQPGSSSVQDNREDMNQKQPINSSSQHRHDLQNSEGSYPEEWGGIPSKELQEAIMLEKAIFGGVANESASHNNQLGIHKESQSPNQRVVREEPERKAALPIEPSGENEDAITLLVRMPDSSRHGRRFLKSDKLKYLFDFIDAAGLVKPGTYRVVRPYPRRAFSIQDGALTFEELSLTNKQEALFLELLV
B10: PUX7 171-468 (Arabidopsis thaliana, UniProt Q94JZ8); chain LASLYRPPFHLMFQGSFEQAKTTSSSQDKWLLVNLQSTTEFSSHMLNRDTWANDAVSQTIKANFIFWQVYDDTTEGRKVCTYYKLESIPVVLVIDPTTGQRMRMWTGMVDPENLLEDLVPFMDGGPREHFASLSKKRPRGSFSLTPHSKPKEDVAKDEEEEELQRALAASLEDNNMKESSDDQSTIIPEEVAVEAVTSAVLPTFPPLPEEPKGGDRSLQCRVGIRLPNGQRLQRNFLKTDTIQLLWSFCYSQLEESERKKPLKLTQAIPGESKTLEYESNLTLEQSGVANSMISATWE
Chain of UniProt P21651 (whole entry, looked up): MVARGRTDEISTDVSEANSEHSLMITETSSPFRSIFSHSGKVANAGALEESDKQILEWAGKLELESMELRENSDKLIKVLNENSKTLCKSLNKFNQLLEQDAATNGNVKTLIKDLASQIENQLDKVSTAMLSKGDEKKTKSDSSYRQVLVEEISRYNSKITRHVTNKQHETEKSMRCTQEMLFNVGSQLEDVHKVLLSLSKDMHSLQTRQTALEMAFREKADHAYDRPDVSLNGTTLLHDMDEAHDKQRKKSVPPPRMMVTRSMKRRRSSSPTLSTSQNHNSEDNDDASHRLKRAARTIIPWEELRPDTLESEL
Chain of UniProt P09980 (whole entry, looked up): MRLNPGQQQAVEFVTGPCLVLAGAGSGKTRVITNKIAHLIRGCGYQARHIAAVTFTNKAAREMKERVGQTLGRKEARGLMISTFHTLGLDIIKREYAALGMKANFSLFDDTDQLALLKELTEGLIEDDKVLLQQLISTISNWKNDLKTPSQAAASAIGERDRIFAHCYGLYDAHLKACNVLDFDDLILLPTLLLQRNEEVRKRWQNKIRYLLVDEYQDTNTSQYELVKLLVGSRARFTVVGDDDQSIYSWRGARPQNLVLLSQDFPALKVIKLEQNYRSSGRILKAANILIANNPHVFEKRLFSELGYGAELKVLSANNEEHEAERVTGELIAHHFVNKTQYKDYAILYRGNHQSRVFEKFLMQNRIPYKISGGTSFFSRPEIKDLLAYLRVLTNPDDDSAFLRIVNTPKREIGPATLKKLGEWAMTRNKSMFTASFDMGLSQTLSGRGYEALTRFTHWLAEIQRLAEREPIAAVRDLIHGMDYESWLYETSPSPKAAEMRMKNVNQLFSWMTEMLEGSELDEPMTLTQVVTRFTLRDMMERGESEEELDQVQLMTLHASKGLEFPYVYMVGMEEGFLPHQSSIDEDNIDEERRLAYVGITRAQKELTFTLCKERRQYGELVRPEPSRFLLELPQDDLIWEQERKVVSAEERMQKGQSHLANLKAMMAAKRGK
Chain of UniProt P06241 (whole entry, looked up): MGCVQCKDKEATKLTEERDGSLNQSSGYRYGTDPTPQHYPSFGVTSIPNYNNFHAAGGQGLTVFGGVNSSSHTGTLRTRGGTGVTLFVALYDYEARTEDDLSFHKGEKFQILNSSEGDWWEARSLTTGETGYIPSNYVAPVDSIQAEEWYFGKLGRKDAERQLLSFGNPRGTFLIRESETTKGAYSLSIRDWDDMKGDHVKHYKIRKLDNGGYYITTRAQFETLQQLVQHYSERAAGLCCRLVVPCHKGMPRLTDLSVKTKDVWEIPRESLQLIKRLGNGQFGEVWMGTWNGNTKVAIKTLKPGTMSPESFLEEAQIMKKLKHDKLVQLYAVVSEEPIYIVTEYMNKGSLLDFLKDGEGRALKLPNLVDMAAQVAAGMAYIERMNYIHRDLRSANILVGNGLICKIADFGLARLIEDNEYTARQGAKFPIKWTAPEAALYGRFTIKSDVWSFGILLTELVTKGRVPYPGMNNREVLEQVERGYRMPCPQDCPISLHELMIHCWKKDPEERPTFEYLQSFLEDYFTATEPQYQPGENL
Chain of UniProt P15311 (whole entry, looked up): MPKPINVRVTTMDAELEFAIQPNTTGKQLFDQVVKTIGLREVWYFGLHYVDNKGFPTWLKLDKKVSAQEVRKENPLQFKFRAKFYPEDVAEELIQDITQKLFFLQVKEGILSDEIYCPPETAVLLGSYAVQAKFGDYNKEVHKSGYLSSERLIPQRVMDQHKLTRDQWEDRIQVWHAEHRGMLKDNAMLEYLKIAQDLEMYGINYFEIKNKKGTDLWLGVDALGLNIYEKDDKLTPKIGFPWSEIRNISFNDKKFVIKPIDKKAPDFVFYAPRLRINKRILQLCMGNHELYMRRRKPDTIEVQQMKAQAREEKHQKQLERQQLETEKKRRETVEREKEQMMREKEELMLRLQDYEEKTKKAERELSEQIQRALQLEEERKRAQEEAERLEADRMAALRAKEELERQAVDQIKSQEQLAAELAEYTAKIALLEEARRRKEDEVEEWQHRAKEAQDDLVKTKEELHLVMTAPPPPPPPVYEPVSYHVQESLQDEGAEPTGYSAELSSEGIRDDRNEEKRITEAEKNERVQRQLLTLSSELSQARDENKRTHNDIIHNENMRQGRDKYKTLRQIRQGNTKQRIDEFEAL
Chain of UniProt P0C0L4 (whole entry, looked up): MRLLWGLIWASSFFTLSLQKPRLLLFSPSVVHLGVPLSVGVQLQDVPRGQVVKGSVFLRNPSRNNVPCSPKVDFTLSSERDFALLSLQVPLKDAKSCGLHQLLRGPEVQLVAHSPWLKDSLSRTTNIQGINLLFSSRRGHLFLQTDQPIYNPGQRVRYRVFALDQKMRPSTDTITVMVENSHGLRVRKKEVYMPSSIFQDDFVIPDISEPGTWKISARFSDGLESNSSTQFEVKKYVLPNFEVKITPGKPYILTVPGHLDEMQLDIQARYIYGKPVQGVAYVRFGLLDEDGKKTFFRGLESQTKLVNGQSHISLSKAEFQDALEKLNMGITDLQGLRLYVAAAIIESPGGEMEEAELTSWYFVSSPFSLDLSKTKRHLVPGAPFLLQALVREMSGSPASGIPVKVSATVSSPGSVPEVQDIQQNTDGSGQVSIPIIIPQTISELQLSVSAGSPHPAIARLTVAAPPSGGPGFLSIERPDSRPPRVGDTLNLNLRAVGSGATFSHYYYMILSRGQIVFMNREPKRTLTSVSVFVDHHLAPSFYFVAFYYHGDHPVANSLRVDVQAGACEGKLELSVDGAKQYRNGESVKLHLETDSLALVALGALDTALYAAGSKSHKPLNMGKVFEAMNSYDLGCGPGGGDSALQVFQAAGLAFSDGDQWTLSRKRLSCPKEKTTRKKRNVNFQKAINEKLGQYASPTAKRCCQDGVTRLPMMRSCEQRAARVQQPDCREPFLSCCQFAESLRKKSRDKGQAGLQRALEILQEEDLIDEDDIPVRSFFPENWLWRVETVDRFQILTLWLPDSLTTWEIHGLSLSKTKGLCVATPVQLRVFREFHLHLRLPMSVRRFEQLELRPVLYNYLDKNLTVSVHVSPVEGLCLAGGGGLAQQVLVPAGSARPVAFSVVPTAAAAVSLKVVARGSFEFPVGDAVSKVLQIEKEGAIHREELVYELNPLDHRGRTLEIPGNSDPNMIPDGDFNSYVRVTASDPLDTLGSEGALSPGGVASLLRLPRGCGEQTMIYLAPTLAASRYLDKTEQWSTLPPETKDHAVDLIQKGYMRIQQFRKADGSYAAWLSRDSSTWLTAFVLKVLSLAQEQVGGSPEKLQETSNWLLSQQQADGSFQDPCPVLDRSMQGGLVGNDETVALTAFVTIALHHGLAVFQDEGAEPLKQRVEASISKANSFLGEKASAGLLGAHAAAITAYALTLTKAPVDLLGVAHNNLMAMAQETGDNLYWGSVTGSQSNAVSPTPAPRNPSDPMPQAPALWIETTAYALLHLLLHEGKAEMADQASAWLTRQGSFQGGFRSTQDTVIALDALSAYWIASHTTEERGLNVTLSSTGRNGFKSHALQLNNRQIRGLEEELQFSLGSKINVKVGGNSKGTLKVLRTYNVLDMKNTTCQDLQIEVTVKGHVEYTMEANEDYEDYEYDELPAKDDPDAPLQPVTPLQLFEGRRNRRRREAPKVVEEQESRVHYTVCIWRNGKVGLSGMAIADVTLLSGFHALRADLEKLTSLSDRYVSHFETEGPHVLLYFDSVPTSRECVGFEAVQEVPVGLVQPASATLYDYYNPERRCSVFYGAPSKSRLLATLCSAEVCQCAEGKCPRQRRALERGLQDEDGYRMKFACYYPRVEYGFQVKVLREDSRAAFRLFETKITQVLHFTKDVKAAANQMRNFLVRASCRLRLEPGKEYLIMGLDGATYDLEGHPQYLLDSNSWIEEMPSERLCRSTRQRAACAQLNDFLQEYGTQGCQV

`B1 (priC)`: “molecule per partner” 2 (rep (Escherichia coli, UniProt P09980); AUC).
`calmodulin (Spodoptera frugiperda)`: “molecule per partner” 1 (stra6 (Danio rerio, UniProt F1RAX4); SEC with light scattering; in detergent).
`B2 (PUX5 301-421 F395A)`: “molecule per partner” 1.4 ± 0.1 (CDC48A; ITC; 25 °C).
`TFAFPLHVDYSWVISTEPGSDSEEDEEEKRCLLKLPAQAHWASGRLDISN (ASAP3 681-730 (Homo sapiens, UniProt Q8TDY4-1); sequence looked up)`: “molecule per partner” 1 (EZR 2-296 (Homo sapiens, UniProt P15311); SEC-MALS).
`PAPALPPKPPKPTT (PIK3R1 303-316 (Homo sapiens))` — result for “molecule per partner”: 0.9 (FYN 82-144 (Homo sapiens, UniProt P06241); ITC; peptide).
`SPP1 (Saccharomyces cerevisiae, UniProt Q03012)` — result for “molecule per partner”: 2 per Mer2 tetramer (REC107 (Saccharomyces cerevisiae, UniProt P21651); SEC-SAXS).
`GSGAGHETIV` has a binding intensity of 0.0717 (human MAGI1-2/6 PDZ construct (MBP fusion); automated holdup; peptide, crude extract; concentration not given, corrected by standard peak, unit not given; reference: biotin control resin, higher = stronger binding).
Under “molecule per partner”, `B3 (PUX5 301-421 R353A)` is recorded as 1 ± 0.1 (CDC48A; ITC; 25 °C).
Under “molecule per partner”, `B4 (GIGYF1 33-103)` is recorded as 1 ± 0.02 (EIF4E2; ITC; peptide).
The binding intensity of `NRVDSKETEC` is reported as -0.133 (human MAGI1-2/6 PDZ construct (MBP fusion); automated holdup; peptide, crude extract; concentration not given, corrected by standard peak, unit not given; reference: biotin control resin, higher = stronger binding).
`KYKLADYRYGREEMLALFLKDNKIPSDLLDKEFLPILQ (GIGYF2 35-72 (Homo sapiens, UniProt Q6Y7W6-1))` — result for “molecule per partner”: 1 ± 0.01 (EIF4E2; ITC; peptide).
For `ARTKQTARKSTGGKA (H3C1 1-15; K9me2)`, “molecule per partner” read 1 (T1, ATRX ADD domain 167-289 K251R/F284Y (Homo sapiens); ITC; peptide).
`B5 (ATG23 full-length, dimer)`: “molecule per partner” 0.79 (ATG9 864-997 (Saccharomyces cerevisiae, UniProt Q12142); ITC; 20 °C).
`EEQWAREIGAQLRRMADDLNAQYER (BBC3 BH3 peptide 68-92 (Homo sapiens); N-acetyl, C-terminal amide)` — result for “molecule per partner”: 1.01 (BCL2L1 fragment (Homo sapiens); ITC; peptide).
`B6 (mxt 577-640)` — result for “molecule per partner”: 1 ± 0.03 (eIF4E1 69-248 (Drosophila melanogaster, UniProt P48598-2); ITC).
For `PCMTD1/ELOB/ELOC complex (Homo sapiens)`, “molecule per partner” read 1 (CUL5/RBX2 (Homo sapiens/Mus musculus); native MS).
Under “molecule per partner”, `B7 (SPP1 161-353)` is recorded as 2 per Mer2 tetramer (REC107 138-224 (Saccharomyces cerevisiae, UniProt P21651); SEC-SAXS).
With `CCT3` the co-IP enrichment was 4380 (co-immunoprecipitation; human RBC cytosol; DSSO crosslinker, unit not given, with: Band 3 peptide 1-56 bait; reference: negative control).
Under “molecule per partner”, `ARTKQTARKSTGGKA (H3C1 1-15; K9me1)` is recorded as 0.97 (T1, ATRX ADD domain 167-289 K251R/F284Y (Homo sapiens); ITC; peptide).
For `ARTKQTARKSTG (histone H3 peptide 1-12; K4me1)`, “molecule per partner” read 0.83 (PHD tandem finger domain 364-473 (Physcomitrium patens, UniProt A0A2K1L966); ITC; peptide).
Under “molecule per partner”, `B8 (HCK 78-138)` is recorded as 1.1 ± 0.1 (PIK3R1 80-333 (Homo sapiens, UniProt P27986); ITC).
Under “molecule per partner”, `csm5 (Thermococcus onnurineus)` is recorded as 1 (Csm1/Csm4 heterodimer (Thermococcus onnurineus); cryo-EM).
`CER6 (Zea mays, UniProt B4G0N2)` — result for “molecule per partner”: 1 2:2 (GL2 (Zea mays, UniProt A0A804MAL4); cryo-EM).
Under “molecule per partner”, `AATKQTARKS (H3C1 1-10 R2A)` is recorded as 1 (T1, ATRX ADD domain 167-289 K251R/F284Y (Homo sapiens); ITC; peptide).
Under “molecule per partner”, `C4b (Homo sapiens, UniProt P0C0L4)` is recorded as 3 C4b per C4BP (C4BP/PROS1 mature (human); mass photometry).
`SEPTIN7 (Homo sapiens, UniProt Q16181)` — result for “molecule per partner”: 1 (SEPTIN3 (Homo sapiens, UniProt Q9UH03-1); co-sedimentation).
For `B9 (PUX9)`, “molecule per partner” read 0.6 ± 0.1 (CDC48A; ITC; 25 °C).
`KYKLADYRYGREEMLALYVK (GIGYF1 33-52 (Homo sapiens, UniProt O75420))` — result for “molecule per partner”: 1 ± 0.01 (EIF4E2; ITC; peptide).
Under “molecule per partner”, `ARTKQTARKSTGGKAY (H3C1 1-15; K4me1)` is recorded as 0.98 (T1, ATRX ADD domain 167-289 K251R/F284Y (Homo sapiens); ITC; peptide).
Under “molecule per partner”, `B10 (PUX7 171-468)` is recorded as 1.2 ± 0.1 (CDC48A; ITC; 10 °C).

Repeated from above:
The binding intensity of `NRVDSKETEC` is reported as -0.133 (human MAGI1-2/6 PDZ construct (MBP fusion); automated holdup; peptide, crude extract; concentration not given, corrected by standard peak, unit not given; reference: biotin control resin, higher = stronger binding).
`KYKLADYRYGREEMLALFLKDNKIPSDLLDKEFLPILQ (GIGYF2 35-72 (Homo sapiens, UniProt Q6Y7W6-1))` — result for “molecule per partner”: 1 ± 0.01 (EIF4E2; ITC; peptide).
